Experimental data of several laboratories.
Compare with care: the assays were run in different laboratories. ± marks the error that the study gave.

SMILES | test | test system | conditions | measurement | result
CC[C@H](C)C(=O)N1CCC(NC(=O)Nc2ccc(OC(F)(F)F)c(F)c2)CC1 |  | healthy volunteers | oral, 2 mg single dose | subjects with laryngitis TEAE | 0%
C[C@]12CC[C@H](OC(=O)NC3CCNCC3)C[C@H]1CC[C@@H]1[C@@H]2CC[C@]2(C)[C@@H](c3ccc(=O)oc3)CC[C@]12O |  | male Sprague-Dawley rats, plasma | intravenous, 5 mg/kg | volume of distribution | 1.37 ± 0.45 L/kg
CC(C)[C@@H]1NC(=O)[C@H](Cc2ccccc2)NC(=O)[C@H](Cc2ccc(O)cc2)NC(=O)CCSSC[C@@H](C(=O)N2CCC[C@H]2C(=O)N[C@H](CCCNC(=N)N)C(=O)NCC(N)=O)NC(=O)[C@H](CCC(N)=O)NC1=O |  | Wistar rat, blood | intravenous, 1 µg/kg single dose, 72 h | AST | 39.2 ± 6.7 IU/L
[3H]c1sc(C)nc1C=C(C)C1CC2C(CCCC(C)C(O)C(C)C(=O)C(C)(C)C(O)CC(=O)O1)N2CCO (centres unmarked) | whole-body autoradiography | CD2F1 mice, intestine contents | intravenous, 2.2 nmol/kg, 2 h | radioactivity in tissue | 49.9 ± 29 µg-eq/g
CCN(Cc1ccccc1)C(=O)CCc1nc(CN2CCN(C(=O)Cc3ccc(OC)c(OC)c3)CC2)no1 |  | rat, brain | intravenous, 1 mg/kg, 2 h | concentration | 2 ng/g
O=P1(NCCCl)NCCCO1 (centres unmarked) |  | rat, plasma | intravenous, 10 mg/kg, together with: ketoconazole 20 mg/kg oral 50 min before | MRT(0-t) | 5.32 ± 0.702 h
CCCCCCCC(=O)OC[C@H](NC(=O)[C@H](CO)NC(=O)CN)C(=O)N[C@@H](Cc1ccccc1)C(=O)N[C@@H](CC(C)C)C(=O)N[C@@H](CO)C(=O)N1CCC[C@H]1C(=O)N[C@@H](CCC(=O)O)C(=O)N[C@@H](Cc1cnc[nH]1)C(=O)N[C@@H](CCC(N)=O)C(=O)N[C@@H](CCCNC(=N)N)C(=O)N[C@H](C(=O)N[C@@H](CCC(N)=O)C(=O)N[C@@H](CCC(N)=O)C(=O)N[C@@H](CCCNC(=N)N)C(=O)N[C@@H](CCCCN)C(=O)N[C@@H](CCC(=O)O)C(=O)N[C@@H](CO)C(=O)N[C@@H](CCCCN)C(=O)N[C@@H](CCCCN)C(=O)N1CCC[C@H]1C(=O)N1CCC[C@H]1C(=O)N[C@@H](C)C(=O)N[C@@H](CCCCN)C(=O)N[C@@H](CC(C)C)C(=O)N[C@@H](CCC(N)=O)C(=O)N1CCC[C@H]1C(=O)N[C@@H](CCCNC(=N)N)C(=O)O)C(C)C | ELISA | healthy humans, both sexes, plasma | intravenous bolus then infusion, 0.28 µg/kg bolus then 1 µg/kg/h, 210 min | Cmax | 1.93 ± 1.3 ng/mL
CC[C@H](C)[C@H](NC(=O)[C@H](CO)NC(=O)[C@H](CCCCN)NC(=O)[C@@H](NC(=O)[C@@H](NC(=O)[C@H](CC(=O)O)NC(=O)[C@H](CCC(=O)O)NC(=O)[C@@H](NC(=O)[C@H](CO)NC(=O)[C@@H](N)CCCNC(=N)N)[C@@H](C)O)[C@@H](C)CC)[C@@H](C)CC)C(=O)N[C@@H](CO)C(=O)NCC(=O)NCC(=O)NCC(=O)N[C@@H](Cc1ccccc1)C(=O)N[C@@H](CC(C)C)C(=O)N[C@@H](CC(N)=O)C(=O)N[C@@H](C)C(=O)N[C@@H](CCSC)C(=O)N[C@@H](CC(N)=O)C(=O)N[C@@H](C)C(N)=O |  | zebrafish embryos | 1, 5, 25 µM, 4, 28, 52 hpf | toxicity | not toxic
[2H]c1c(NS(C)(=O)=O)c([2H])c2c(C(=O)c3ccc(OCCCN(CCCC)CCCC)cc3)c(CCCC)oc2c1[2H] |  | beagle dog, female, persistent atrial fibrillation model | intravenous, 3 mg/kg, 0.5 h | peak QTcF change | 7 ± 5 ms
CC[C@H](C)[C@H](NC(=O)[C@H](Cc1ccccc1)NC(=O)[C@@H]1CCCN1C(=O)[C@H](CCCCN)NC(=O)[C@H](CCCCN)NC(=O)[C@H](Cc1ccccc1)NC(=O)[C@H](Cc1ccccc1)NC(=O)[C@@H](C)NC(=O)[C@@H](N)Cc1ccc(O)cc1)C(=O)N[C@@H](CC(C)C)C(=O)O |  | anesthetized rat | intrathecal, 10 nmol/rat, 10 min | heart rate | 418 ± 32 beats/min
CSCC[C@H](NC(=O)CNC(=O)[C@H](CC(=O)O)NC(=O)[C@@H](NC(=O)[C@@H](NC(=O)[C@@H](NC(=O)CNC(=O)[C@H](CCC(N)=O)NC(=O)[C@H](CCSC)NC(=O)[C@H](CC(=O)O)NC(=O)[C@H](C)NC(=O)[C@H](C)NC(=O)[C@@H](NC(=O)[C@H](CO)NC(=O)[C@@H](N)CC(C)C)[C@@H](C)O)C(C)C)C(C)C)[C@@H](C)O)C(=O)N[C@@H](C)C(=O)N[C@@H](CO)C(=O)NCC(=O)N[C@@H](CC(C)C)C(=O)N[C@@H](CC(=O)O)C(=O)N[C@@H](CCCCN)C(=O)N[C@@H](CC(=O)O)C(=O)N[C@@H](Cc1ccc(O)cc1)C(=O)N[C@@H](CC(C)C)C(=O)N[C@@H](CCCCN)C(=O)N1CCC[C@H]1C(=O)N[C@@H](CC(=O)O)C(=O)N[C@@H](CC(=O)O)C(=O)O |  | human, serum | intravenous, 0.83 mg/kg, patients, infusion | clearance | 57.2 mL/min/kg
[2H]C([2H])([2H])C([2H])([2H])C([2H])([2H])OC(C(=O)OC1CCNCC1)(c1ccccc1)c1ccccc1 | measured: vomiting | healthy Japanese male | oral, 10 mg, 16 days, multiple ascending dose | adverse events | 14.3%
CC(C)[C@H](NC(=O)CNC(=O)[C@H](CCC(N)=O)NC(=O)[C@H](C)N)C(=O)O |  | human | single dose, 3 mg/kg, unlikely related or unrelated | unrelated adverse events | 33.3%
CCCCCCCCCCCCCCC(=O)O.O=C1CCCC2C3CCCN4CCCC(CN12)C34 (centres unmarked) | shake-flask | ultrapure water | pH 7.0, 37 °C | log octanol-water partition coefficient | 0.6
COc1cc(NC(=O)C(=O)c2c(C)n(Cc3ccc(Cl)cc3)c3ccc(C)cc23)ccn1 |  | female cynomolgus monkey, plasma | intravenous, 1 mg/kg, mean | Vss | 8.38 L/kg
O=c1cc(-c2ccccc2)oc2c(Br)c(O)c(O)c(O)c12 |  | C57BL/6 mouse, plasma | intravenous, 10 mg/kg | AUC extrapolated to infinity | 7.9 ± 6.3%
Nc1ccc(-c2ccccc2)cc1OC(=O)NC1CCCCC1 |  | rat liver S9 fraction | together with: NADPH-regenerating system | log hydrolysis rate constant | -1.34
CC(=O)[O-].F[P-](F)(F)(F)(F)F.[Co+2].c1ccc(CN2CCCN3CCN(CCCN(Cc4ccccc4)CC3)CC2)cc1 | cyclic voltammetry, measured: second Co2+/Co3+ couple | acetonitrile |  | peak separation | 75 mV
CCCC[C@H]1C(=O)N(C)[C@@H](CCCC)C(=O)N[C@@H](CCCNC(=O)CN2CCN(CC(=O)O)CCN(CC(=O)O)CCN(CC(=O)O)CC2)C(=O)N[C@H](C(=O)NCC(N)=O)CSCC(=O)N[C@@H](Cc2ccc(O)cc2)C(=O)N(C)[C@@H](C)C(=O)N[C@@H](CC(N)=O)C(=O)N2CCC[C@H]2C(=O)N[C@@H](Cc2c[nH]cn2)C(=O)N[C@@H](CC(C)C)C(=O)N(C)CC(=O)N[C@@H](Cc2c[nH]c3ccccc23)C(=O)N[C@@H](CO)C(=O)N[C@@H](Cc2c[nH]c3ccccc23)C(=O)N1C [gallium-68 labelled] | static PET | NOD/SCID mice, CHO xenograft, CHO tumour, PD-L1-negative | intravenous, 1 h post injection | tumour to muscle ratio | 3.49 ± 0.51
CC(COC(=O)c1ccccc1)OC(=O)C(N)Cc1ccccc1 (mixture of isomers) |  |  | pH 6 or lower | half-life | > 30 h
CC(C)C[C@H](NC(=O)[C@H](CCCCN)NC(=O)[C@H](CCC(=O)O)NC(=O)[C@H](C)NC(=O)[C@@H](NC(=O)[C@H](CCCCN)NC(=O)[C@H](CC(=O)O)NC(=O)[C@H](Cc1ccc(O)cc1)NC(=O)[C@H](Cc1ccccc1)NC(=O)[C@H](C)NC(=O)[C@H](CCCCN)NC(=O)[C@H](CC(C)C)NC(=O)[C@H](Cc1c[nH]c2ccccc12)NC(=O)[C@@H](N)CC(=O)O)C(C)C)C(=O)N[C@@H](CCCCN)C(=O)N[C@@H](CCC(=O)O)C(=O)N[C@@H](C)C(=O)N[C@@H](Cc1ccccc1)C(=O)N1CCC[C@H]1C(=O)N[C@@H](CC(=O)O)C(=O)N[C@@H](Cc1c[nH]c2ccccc12)C(=O)N[C@@H](C)C(=O)N[C@@H](CCCCN)C(=O)N[C@@H](C)C(=O)N[C@@H](C)C(=O)N[C@@H](Cc1ccc(O)cc1)C(=O)N[C@@H](CC(=O)O)C(=O)N[C@@H](CCCCN)C(=O)N[C@@H](C)C(=O)N[C@@H](C)C(=O)N[C@@H](CCC(=O)O)C(=O)N[C@@H](CCCCN)C(=O)N[C@@H](C)C(=O)N[C@@H](CCCCN)C(=O)N[C@@H](CCC(=O)O)C(=O)N[C@@H](C)C(=O)N[C@@H](C)C(=O)O |  | cynomolgus monkey female, plasma | intravenous infusion, 75 mg/kg, day 1, 30 min infusion | Tmax | 0 h
CSCC[C@@H]1NC(=O)[C@@H]2CSSC[C@H](NC(=O)[C@H](CO)NC(=O)[C@H](C)N)C(=O)N[C@@H](CCCNC(=N)N)C(=O)N[C@@H]([C@@H](C)O)C(=O)N3CCC[C@H]3C(=O)N[C@@H](CCCCN)C(=O)N[C@@H](CC(=O)O)C(=O)N[C@H]3CSSC[C@H](NC(=O)[C@H](CCCCN)NC(=O)[C@H](CCCNC(=N)N)NC(=O)[C@H](CC(N)=O)NC1=O)C(=O)N[C@@H](CCCCN)C(=O)N[C@H]1CSSC[C@H](NC(=O)[C@@H]4CCCN4C(=O)[C@H](CC(=O)O)NC(=O)[C@H](C)NC3=O)C(=O)N[C@@H](C)C(=O)N[C@@H](CCCCN)C(=O)N[C@@H](CCC(=O)O)C(=O)N[C@@H]([C@@H](C)O)C(=O)NCC(=O)N[C@@H](CSSC[C@@H](C(N)=O)NC(=O)[C@H](CCCNC(=N)N)NC(=O)[C@H](CC(N)=O)NC1=O)C(=O)N1CCC[C@H]1C(=O)N[C@@H](Cc1ccc(O)cc1)C(=O)NCC(=O)N[C@@H](CCCCN)C(=O)N2 |  | DA rat, pristane-induced arthritis, serum | subcutaneous, 0.1 mg/kg once weekly, end of 21-day trial | albumin/globulin ratio | 3.24
CC(C)COC1O[C@@H]2O[C@@]3(C)CC[C@H]4[C@H](C)CCC([C@H]1C)[C@@]24OO3 (some centres unmarked) |  | Tg(fli1:EGFP) zebrafish embryos | 1.0 µg/mL, up to 48 hpf | dead embryos | 0 count
CC(C)(N)CNC(=O)O[C@H]1CCCC2(C1)OOC1(O2)C2CC3CC(C2)CC1C3 (some centres unmarked) |  | human liver microsomes |  | CLint | < 11.5 µL/min/mg
CC(C)C[C@@H](NC(=O)[C@@H](CCCCN)NC(=O)CNC(=O)CNC(=O)[C@@H]1CSSC[C@H](N)C(=O)NCC(=O)N[C@@H](CCCNC(=N)N)C(=O)N[C@@H](CCCNC(=N)N)C(=O)N[C@@H](C)C(=O)NCC(=O)NCC(=O)N[C@@H](CO)C(=O)N1)C(=O)N[C@H](C)C(=O)N[C@H](CCCCN)C(=O)N[C@H](CC(C)C)C(=O)N[C@H](C)C(=O)N[C@H](CCCCN)C(=O)N[C@H](CCCCN)C(=O)N[C@H](CC(C)C)C(=O)N[C@H](C)C(=O)N[C@H](CCCCN)C(=O)N[C@H](CC(C)C)C(=O)N[C@H](C)C(=O)N[C@H](CCCCN)C(=O)O |  | cynomolgus monkey, plasma | intravenous, 9 mg/kg, infusion | clearance | 44.2 mL/min
CN(C)C(CNC(=O)Nc1cc(C(F)(F)F)ccc1N1CCOCC1)c1ccncc1 (centres unmarked) |  | mouse, serum | intraperitoneal, 360 mg/kg single dose | serum cholesterol | 35 mg/dL
C[C@H]1C(=O)O[C@@H]2O[C@@]3(C)CC[C@@H]4[C@@]2(OO3)[C@H]1CC[C@]4(C)O |  | healthy Chinese human | oral, dose not given, day 1 | free AUC(0-t) | 0.799 ± 0.23 µM·h
Cc1ccc(/C=C/C(=O)O)cc1-c1cc2c(cc1C)C(C)(C)CCC2(C)C |  | Sprague-Dawley rat, male, plasma | oral, 100 mg/kg, 6 h, sesame oil vehicle | HDL level | 50 ± 4 mg/dL
COC(=O)C[C@](O)(CCCC(C)(C)OC(C)=O)C(=O)O[C@@H]1C(OC)=C[C@]23CCCN2CCc2cc4c(cc2[C@H]13)OCO4 |  | CD1 mouse, kidney | subcutaneous, 1 mg/kg, 2 h | tissue concentration | 191 ng/mL
